Experimental data pooled from the literature.
Compare with care: the assays were run in different laboratories.
Fibroin-modulator-binding protein-1: Fibroin-modulator-binding protein-1 99-193 (Bombyx mori, UniProt Q5FBS0)
UniProt Q9SM50, sequence (whole entry, looked up): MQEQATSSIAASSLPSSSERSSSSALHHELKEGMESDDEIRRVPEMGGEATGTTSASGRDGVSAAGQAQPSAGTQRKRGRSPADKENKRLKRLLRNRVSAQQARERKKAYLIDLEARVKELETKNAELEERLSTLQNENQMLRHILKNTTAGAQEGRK
UniProt P19338, sequence (whole entry, looked up): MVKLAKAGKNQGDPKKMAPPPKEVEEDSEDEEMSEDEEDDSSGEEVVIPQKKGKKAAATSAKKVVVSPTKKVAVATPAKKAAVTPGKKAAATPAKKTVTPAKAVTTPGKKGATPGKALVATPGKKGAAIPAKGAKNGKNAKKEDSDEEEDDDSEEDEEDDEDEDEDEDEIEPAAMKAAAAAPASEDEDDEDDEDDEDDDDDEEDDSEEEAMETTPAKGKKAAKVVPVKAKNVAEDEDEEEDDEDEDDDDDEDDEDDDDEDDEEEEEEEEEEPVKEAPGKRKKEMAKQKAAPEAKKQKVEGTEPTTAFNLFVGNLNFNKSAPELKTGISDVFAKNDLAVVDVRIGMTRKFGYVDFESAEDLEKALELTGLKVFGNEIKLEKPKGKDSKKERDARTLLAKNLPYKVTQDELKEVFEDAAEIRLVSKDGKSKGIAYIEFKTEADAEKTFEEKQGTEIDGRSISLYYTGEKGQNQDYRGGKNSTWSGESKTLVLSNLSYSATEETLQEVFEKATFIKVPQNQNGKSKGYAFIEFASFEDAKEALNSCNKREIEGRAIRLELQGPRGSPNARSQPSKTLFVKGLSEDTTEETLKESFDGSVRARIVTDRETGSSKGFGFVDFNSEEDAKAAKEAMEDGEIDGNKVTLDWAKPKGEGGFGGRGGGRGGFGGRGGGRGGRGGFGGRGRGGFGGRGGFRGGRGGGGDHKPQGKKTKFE
UniProt Q6Z156, sequence (whole entry, looked up): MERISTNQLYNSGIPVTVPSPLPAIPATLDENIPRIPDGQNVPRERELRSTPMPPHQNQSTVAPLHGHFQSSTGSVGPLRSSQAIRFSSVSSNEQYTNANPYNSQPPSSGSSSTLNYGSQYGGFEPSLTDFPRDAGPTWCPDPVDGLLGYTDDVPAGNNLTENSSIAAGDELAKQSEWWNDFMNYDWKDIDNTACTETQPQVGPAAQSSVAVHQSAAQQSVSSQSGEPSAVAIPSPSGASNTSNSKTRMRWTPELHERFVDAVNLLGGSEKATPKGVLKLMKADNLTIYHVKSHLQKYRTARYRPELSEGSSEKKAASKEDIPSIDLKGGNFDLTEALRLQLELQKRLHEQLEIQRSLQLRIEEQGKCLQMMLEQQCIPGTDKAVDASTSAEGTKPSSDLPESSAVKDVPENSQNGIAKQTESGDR
UniProt P25454, sequence (whole entry, looked up): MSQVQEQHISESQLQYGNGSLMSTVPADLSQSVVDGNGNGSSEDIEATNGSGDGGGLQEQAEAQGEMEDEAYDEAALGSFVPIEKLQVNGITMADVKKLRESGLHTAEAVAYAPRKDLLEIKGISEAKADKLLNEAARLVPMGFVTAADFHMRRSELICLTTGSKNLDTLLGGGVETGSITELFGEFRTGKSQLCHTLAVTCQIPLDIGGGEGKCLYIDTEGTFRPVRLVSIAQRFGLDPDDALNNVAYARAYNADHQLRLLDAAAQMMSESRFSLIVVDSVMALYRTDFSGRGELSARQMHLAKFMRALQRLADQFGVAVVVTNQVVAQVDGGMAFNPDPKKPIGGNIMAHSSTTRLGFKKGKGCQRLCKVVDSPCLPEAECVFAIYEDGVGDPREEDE
UniProt P32797, sequence (whole entry, unmodified, looked up): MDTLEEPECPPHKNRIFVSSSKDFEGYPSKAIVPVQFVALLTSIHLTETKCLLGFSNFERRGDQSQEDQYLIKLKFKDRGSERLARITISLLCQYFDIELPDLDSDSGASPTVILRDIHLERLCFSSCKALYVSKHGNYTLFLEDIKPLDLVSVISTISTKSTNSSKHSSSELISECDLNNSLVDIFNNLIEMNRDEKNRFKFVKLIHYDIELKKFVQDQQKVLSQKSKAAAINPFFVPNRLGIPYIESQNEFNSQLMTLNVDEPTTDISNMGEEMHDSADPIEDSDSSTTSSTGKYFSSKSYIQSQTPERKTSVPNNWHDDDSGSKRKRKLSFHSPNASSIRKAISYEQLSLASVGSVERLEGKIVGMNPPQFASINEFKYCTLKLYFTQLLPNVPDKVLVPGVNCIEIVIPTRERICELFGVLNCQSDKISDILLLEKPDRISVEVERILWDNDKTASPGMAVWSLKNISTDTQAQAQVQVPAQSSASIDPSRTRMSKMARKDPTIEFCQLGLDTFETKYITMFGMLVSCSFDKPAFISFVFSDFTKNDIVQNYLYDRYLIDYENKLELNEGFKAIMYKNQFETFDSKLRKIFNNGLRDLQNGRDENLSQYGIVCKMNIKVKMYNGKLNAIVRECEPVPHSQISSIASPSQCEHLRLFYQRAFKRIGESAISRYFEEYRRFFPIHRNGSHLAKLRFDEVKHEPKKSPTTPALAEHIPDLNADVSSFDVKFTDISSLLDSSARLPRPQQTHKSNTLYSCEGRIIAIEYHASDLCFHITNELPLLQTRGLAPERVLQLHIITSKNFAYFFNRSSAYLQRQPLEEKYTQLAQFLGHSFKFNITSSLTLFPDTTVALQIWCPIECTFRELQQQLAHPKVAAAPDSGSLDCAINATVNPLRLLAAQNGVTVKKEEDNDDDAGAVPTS
UniProt O75469, sequence (whole entry, looked up): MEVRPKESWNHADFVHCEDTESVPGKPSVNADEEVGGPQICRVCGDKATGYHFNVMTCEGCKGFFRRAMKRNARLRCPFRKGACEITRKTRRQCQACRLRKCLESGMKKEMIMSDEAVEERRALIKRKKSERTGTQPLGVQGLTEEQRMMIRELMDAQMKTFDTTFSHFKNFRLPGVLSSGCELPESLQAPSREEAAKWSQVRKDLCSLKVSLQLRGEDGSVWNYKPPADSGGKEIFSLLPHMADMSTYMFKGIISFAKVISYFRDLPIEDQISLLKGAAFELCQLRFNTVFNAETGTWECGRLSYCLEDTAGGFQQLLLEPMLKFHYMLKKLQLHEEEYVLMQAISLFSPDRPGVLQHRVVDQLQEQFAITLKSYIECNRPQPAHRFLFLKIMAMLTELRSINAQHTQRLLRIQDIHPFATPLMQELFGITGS
UniProt O00425, sequence (whole entry, looked up): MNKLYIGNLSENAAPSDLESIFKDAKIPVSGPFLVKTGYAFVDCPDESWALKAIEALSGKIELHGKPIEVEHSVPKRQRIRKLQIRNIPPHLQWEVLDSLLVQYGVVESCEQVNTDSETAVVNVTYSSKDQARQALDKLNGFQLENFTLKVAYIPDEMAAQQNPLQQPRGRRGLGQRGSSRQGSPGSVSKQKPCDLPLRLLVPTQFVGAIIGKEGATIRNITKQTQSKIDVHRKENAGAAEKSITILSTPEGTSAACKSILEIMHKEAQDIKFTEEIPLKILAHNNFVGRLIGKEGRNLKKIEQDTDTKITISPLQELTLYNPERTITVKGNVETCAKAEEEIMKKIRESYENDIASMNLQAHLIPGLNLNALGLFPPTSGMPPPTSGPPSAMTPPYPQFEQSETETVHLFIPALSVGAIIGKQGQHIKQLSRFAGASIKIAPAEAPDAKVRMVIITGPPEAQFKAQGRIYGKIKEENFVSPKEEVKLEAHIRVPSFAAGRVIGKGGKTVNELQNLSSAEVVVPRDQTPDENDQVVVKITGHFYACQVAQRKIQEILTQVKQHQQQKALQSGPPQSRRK
UniProt Q4VGL6, sequence (whole entry, looked up): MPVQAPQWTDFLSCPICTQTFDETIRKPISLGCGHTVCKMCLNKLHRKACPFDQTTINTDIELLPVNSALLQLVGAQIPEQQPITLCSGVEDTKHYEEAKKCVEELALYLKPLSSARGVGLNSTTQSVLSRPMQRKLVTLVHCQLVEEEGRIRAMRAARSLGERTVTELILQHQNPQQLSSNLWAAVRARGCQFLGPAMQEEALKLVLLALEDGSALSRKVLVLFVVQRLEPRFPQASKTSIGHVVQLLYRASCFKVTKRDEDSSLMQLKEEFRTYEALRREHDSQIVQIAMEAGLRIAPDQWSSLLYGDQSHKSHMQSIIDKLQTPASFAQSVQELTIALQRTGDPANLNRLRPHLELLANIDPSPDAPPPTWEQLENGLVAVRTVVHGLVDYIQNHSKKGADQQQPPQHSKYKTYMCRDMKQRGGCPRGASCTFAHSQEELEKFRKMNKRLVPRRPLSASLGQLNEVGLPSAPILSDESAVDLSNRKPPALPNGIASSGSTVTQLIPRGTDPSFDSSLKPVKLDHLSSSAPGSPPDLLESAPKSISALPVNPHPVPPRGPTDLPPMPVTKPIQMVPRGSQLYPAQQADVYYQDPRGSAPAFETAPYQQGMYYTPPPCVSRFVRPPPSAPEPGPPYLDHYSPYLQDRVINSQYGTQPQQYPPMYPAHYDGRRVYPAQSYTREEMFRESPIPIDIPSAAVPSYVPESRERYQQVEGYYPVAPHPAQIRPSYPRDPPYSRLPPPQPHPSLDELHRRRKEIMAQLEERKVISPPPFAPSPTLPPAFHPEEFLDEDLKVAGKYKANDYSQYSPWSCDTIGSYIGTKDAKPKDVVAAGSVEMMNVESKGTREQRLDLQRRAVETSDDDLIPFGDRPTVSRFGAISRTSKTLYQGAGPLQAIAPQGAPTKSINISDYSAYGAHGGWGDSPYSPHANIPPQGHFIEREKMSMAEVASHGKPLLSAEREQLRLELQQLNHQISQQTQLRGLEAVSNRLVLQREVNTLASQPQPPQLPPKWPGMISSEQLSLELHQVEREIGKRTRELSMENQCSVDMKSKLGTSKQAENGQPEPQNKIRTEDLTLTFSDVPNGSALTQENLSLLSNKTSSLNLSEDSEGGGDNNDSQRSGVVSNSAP

TCGTCAAAGCCTCTGACTTTGGATATCCCCGACCCCACTAAACTT (dsDNA)  binding (PHR2 1-426 (Oryza sativa, UniProt Q6Z156); EMSA; double-stranded DNA, one strand shown): binds
ACAAAAGTTTATAAATGACTCGGTGTTTGACATAACTCGGGGTTGTTTTTCTTTGTTAATTCACACACGGGGTTGGTGTATAAATGACTTCGGTGTTTGAAATGT (dsDNA)  binding (MYC2 1-623 (Arabidopsis thaliana, UniProt Q39204); EMSA; double-stranded DNA, one strand shown): binds
GGTTAGGGTTAGGGTTAGGGTTAG (ssDNA; 5'-phosphate)  binding (POT1 1-299 (Homo sapiens, UniProt Q9NUX5); EMSA; single-stranded DNA): binds
TGTTGTGTGGAATTGTGAGCGGATAACAATTTCACACAGG (dsDNA (Escherichia coli); blunt)  binding (lacI full length assumed N125A/D149A (Escherichia coli, UniProt P03023); filter binding; double-stranded DNA, one strand shown): binds
GGCGGCGGCGGCGGCGGCGGCGGCGGCGGCGGCGGCGGC (ssRNA; 39 nt)  binding (NR1I2 (Homo sapiens, UniProt O75469); EMSA; RNA; 200 nM RNA): binds
GGTTAGGGTTAG (ssDNA; 5'-phosphate)  binding (POT1 1-299 R83E (Homo sapiens, UniProt Q9NUX5); EMSA; single-stranded DNA): binds
GTGGTGTGTGGGTGTGTGTGT (dsDNA)  binding (RAP1/Yku70/Yku80 (Saccharomyces cerevisiae); cryo-EM; double-stranded DNA, one strand shown): binds
GTGTGGTTAATATGGTGTGGTTAATATGGTGTGGTTAATATGGTGTGGTTAATATG (dsDNA)  binding (RNJ 604-911 W850A (Arabidopsis thaliana, UniProt Q84W56); EMSA; double-stranded DNA, one strand shown): no binding
AATTAGTCGCCACGTGTTTTACTTTA (dsDNA)  binding (HY5/CaM2 1-158; 1-149 (Solanum lycopersicum); EMSA; double-stranded DNA, one strand shown; added: CaCl2 5 mM): binds
GGGAGAACUUCGACCAGAAGGACUACGCGAAACUUACUCCCCCCGCCUGUCCUUAAACUUUAUGUGCGCAUACAUGGAUCCUC (ssRNA; 2'-fluoro pyrimidines)  relative binding (integrin alphaV/beta3 31-992/27-718 (Homo sapiens); SPR; RNA; added: MnCl2 1 mM; higher = more binding): 95.7 RU
CAGAATGGAAGAGAGAATAATCAGAGAGGAAGAGAATTTTCATTC (dsDNA)  binding (gbp (Glycine max, UniProt Q8LKV1); EMSA; double-stranded DNA, one strand shown): binds
ACCAAGCTGGATGCGGAGCCGCCGCCGCCGCCG (dsDNA; blunt)  binding (WT1 zinc finger domain 323-435 (Homo sapiens); EMSA; double-stranded DNA, one strand shown): no binding
GSGAGHETIV  binding intensity (human MAGI1-3/6 PDZ construct (MBP fusion); automated holdup; peptide, crude extract; concentration not given, corrected by standard peak, unit not given; baseline: biotin control resin, higher = stronger binding): 0.213
ACGAGCGTTGCACGTGTATTCCCAAT (dsDNA)  binding (HY5 full length assumed (Solanum lycopersicum, UniProt Q9SM50); EMSA; double-stranded DNA, one strand shown): binds
ACCAAGCGGGATGCGTAGCCGCCGCCGCCGCCG (dsDNA; blunt)  binding (WT1 zinc finger domain 323-435 (Homo sapiens); EMSA; double-stranded DNA, one strand shown): no binding
CGCGCGCGCGCG (XNA; LNA blunt self-complementary duplex)  binding (ADAR 133-199 (Homo sapiens, UniProt P55265); AUC sedimentation velocity; modified nucleic acid, one strand shown): binds
CGCCATGCTGATCCGTGTGGTGTGTGTGGG (ssDNA (Saccharomyces cerevisiae))  binding (CDC13 231-924 (Saccharomyces cerevisiae, UniProt P32797); BLI; single-stranded DNA): binds
GGTGGTGGTGGTGGTGGT (ssDNA)  binding (recA full length assumed F204Y (Escherichia coli, UniProt P0A7G6); fluorescence anisotropy; single-stranded DNA; added: ATPγS): binds
GTGAGTGAGTGA (dsDNA)  Kd (Fibroin-modulator-binding protein-1; ITC; double-stranded DNA, one strand shown): 9.88 µM
CGGGTTTCATGTACGTTTTCCGCTAGTTGGCGCGCGTGAACCCGCCGTTCGGGAAATTGCGT (dsDNA; blunt)  binding (rcoM2 full length assumed (Paraburkholderia xenovorans, UniProt Q13IY4); fluorescence anisotropy; double-stranded DNA, one strand shown; Fe(II)-CO): binds
AACGACGTTTGGTCAGTTCCATCAACATCATAGCCAGATGCCCAGAGATTAGAGCGCATGACAAGTAAAGGACGGTTGTCAGCGTCATAAGAGGTTTTAC (ssDNA)  binding (RAD51 1-400 (Saccharomyces cerevisiae, UniProt P25454); cryo-EM; single-stranded DNA; added: ADP-AlF3, Mg2+): binds
GCCGGCCGGCCG (dsDNA)  Kd (Fibroin-modulator-binding protein-1; ITC; double-stranded DNA, one strand shown): 5.05 µM
ATAAGTCACATGATGATATTTGATTTTATTATATTTTTAAAAAAAGTAAAAAATAAAAAGTAGTTTATTTTTAAAAAATAAAATTTAAAATATTTCACAAAATGATTTCCGAA (dsDNA)  binding (CENP-I 1-229 R226D (Thermochaetoides thermophila, UniProt G0SFF7); EMSA; double-stranded DNA, one strand shown): binds
GAACAUAGAAAGAGAGAGAUAUAAA (ssRNA; m6A position 3)  binding (ECT2 full length assumed W521A (Arabidopsis thaliana, UniProt Q9LJE5); EMSA; RNA): no binding
AGCGAAAUGGGAGGGUUA (ssRNA)  binding (NCL 300-650 (Homo sapiens, UniProt P19338); pull-down competition, competition; RNA): binds
TTATTATT (ssDNA)  binding (Rc3h1 411-454 (Mus musculus, UniProt Q4VGL6); NMR; single-stranded DNA): binds
DNA 1 AGATGTCCTAGTTTAGTTGGCTGATCGTTG / DNA 2 CAACGATCAGCCAAC (dsDNA; 5' 15 nt overhang; 3'-recessed)  binding (tnsE full length assumed R388P (Escherichia coli, UniProt P05845); EMSA; double-stranded DNA): binds
CCCCATCACCCAATCCCAGCCCTCCACGTGTCACCAACCCCATGGCAAACCTCC (dsDNA)  binding (GLK1 1-455 (Oryza sativa, UniProt Q5Z5I4); EMSA; double-stranded DNA, one strand shown): binds
ACAAGAACAUCAAAGUCGAAGAACCUUCCG (ssRNA)  binding (IGF2BP3 1-579 (Homo sapiens, UniProt O00425); pull-down; RNA): binds
AGTCCGGGGGTTCCGTTAATGTTTAATCAGATAGGATC (dsDNA)  binding (HNF1A 1-631 (Homo sapiens, UniProt P20823); SPR; double-stranded DNA, one strand shown; without NaHS): binds
DNA 1 ACTTGCAAATTTGCAAATGCAT / DNA 2 TGATGCATTTGCAAATTTGCAA (dsDNA (Aquifex aeolicus); 5' 2-nt overhang)  binding (Transcriptional regulator (NtrC family) 374-442 (Aquifex aeolicus, UniProt O66551); X-ray crystallography; double-stranded DNA): binds
TTTTTTTTTTTTTTTTTTTTTTTTTT (ssDNA; single-stranded)  binding (PARP2 full length, 1-570 (Homo sapiens); EMSA; single-stranded DNA): no binding
TATTTTTAAAACAAAAATATATTAACCCCCCGAGAAAACTAAAATCTAAAATCTAGAAAC (dsDNA)  binding (LHY full length assumed (Arabidopsis thaliana, UniProt Q6R0H1); EMSA; double-stranded DNA, one strand shown): no binding
GSGAGQITKV  binding intensity (human MAGI1-3/6 PDZ construct (MBP fusion); automated holdup; peptide, crude extract; concentration not given, uncorrected, unit not given; baseline: biotin control resin, higher = stronger binding): 0.266
CTTTGCCAAAG (dsDNA)  binding (Transcriptional regulator (NtrC family) 392-439 (Aquifex aeolicus, UniProt O67198); EMSA; double-stranded DNA, one strand shown): no binding
ATATTTGGACCTCTTTGAGGTCTTCGTTGGAAACGGGATTTCCTCATATAATGTTACACA (dsDNA)  binding (CENPI 57-281 (Homo sapiens, UniProt Q92674); competition; double-stranded DNA, one strand shown): binds
TGAGGCGTGTTTGCCCACGTACTATCTGTACTGCAAGGTT (dsDNA)  binding (Transcription factor full length assumed (Rosa chinensis, UniProt A0A2P6P452); EMSA; double-stranded DNA, one strand shown): binds
TCTCCTTTTTGCTTGACACTGACCAAAAAA (dsDNA)  binding (WRKY domain-containing protein 1-253 (Triticum aestivum, UniProt A0A3B5Y6J9); EMSA; double-stranded DNA, one strand shown): binds
CTGCTTTTGCTTTCCGTACTACCCAATTTCATAG (dsDNA)  binding (SPL2 1-415 (Malus domestica, UniProt D9ZJC1); EMSA; double-stranded DNA, one strand shown): binds
GAAAATTTAAGGCGTTAAAAAATAAGGTTTAGAGTGGGTCGGATAAAAATTTGAAAATAGATAT (dsDNA)  binding (Auxin-responsive protein 1-232 (Prunus persica, UniProt M5VWY4); EMSA; double-stranded DNA, one strand shown): no binding
GGATCTCGACGCTCTCCCTT (dsDNA)  binding (RECQL 49-616 D230A/R232A (Homo sapiens, UniProt P46063); fluorescence anisotropy; double-stranded DNA, one strand shown; Mg2+ 5 mM, added: ADPNP 2 mM): no binding
GTGTTCGGACTCTGCCTCAAGACGGTAGTCAACGTGCTTG (dsDNA)  binding (XRS2 1-325 K35E (Saccharomyces cerevisiae, UniProt P33301); EMSA; double-stranded DNA, one strand shown; abolished): no binding
GGGAGAACUUCGACCAGAAGCUGGAUUACGCGAAAAAACUCCUCGCCUAUCGCAGCAAUGUAUGUGCGCAUACAUGGAUCCUC (ssRNA; 2'-fluoro pyrimidines)  relative binding (integrin alphaV/beta3 31-992/27-718 (Homo sapiens); SPR; RNA; added: MnCl2 1 mM; higher = more binding): 40.6 RU
GGCCUUGCACAGUAGUCCAGCGGUAAGGGUGUAGAUCAGGCCCCAUUAAACAUCUACUGAUCCAAUUUCGCCGGCGUACGGCCACGAUCGGGAGGGUGGGAAUCUCGGGGGUCUUCCGAUCCUAAUCCAUGAUGAUUACGACCUGAGUCACUAAAGACGAUGGCAUGAUGAUCCGGCGAUGAAAAA (structured RNA)  binding (Reverse transcriptase-like protein 275-1114 D996A (Bombyx mori, UniProt V9H052); competition; folded RNA): binds
CACGTGCACGTGCACGTGCACGTGCACGTG (dsDNA; blunt, self-complementary)  binding (BHLH domain-containing protein 1-571 (Glycine max, UniProt I1LF47); EMSA; double-stranded DNA, one strand shown): binds

A few entries again:
TGTTGTGTGGAATTGTGAGCGGATAACAATTTCACACAGG (dsDNA (Escherichia coli); blunt)  binding (lacI full length assumed N125A/D149A (Escherichia coli, UniProt P03023); filter binding; double-stranded DNA, one strand shown): binds
GGCGGCGGCGGCGGCGGCGGCGGCGGCGGCGGCGGCGGC (ssRNA; 39 nt)  binding (NR1I2 (Homo sapiens, UniProt O75469); EMSA; RNA; 200 nM RNA): binds
